Published values from different studies.
Lines come from different studies, so protocols differ. Values joined by “and” are separate records of one study, mostly repeats; a detail may differ. ± marks the error that the study gave.

SMILES = COC1CN([C@H]2CC[C@H]([C@@]3(C)Oc4c(Cl)cc(C(=O)NCc5c(SC)cc(C)[nH]c5=O)c(C)c4O3)CC2)C1; test = RNA-seq, item: B3GALNT1; test system = human, whole blood; setting = dose not given, 24 h; how to read = baseline: pretreatment baseline; endpoint = log2 fold change; result = 2.06
SMILES = CC(=O)[O-].O.O.O.O.[Ni+2].[O-]c1ccc(Br)cc1C=NCCN1CCOCC1; test = hydroxyl radical scavenging; setting = 160 µM; endpoint = inhibition; result = 38.8%
SMILES = COc1cc2c(NC3CCN(C(C)C)CC3)cc(N3CCOCC3)nc2cc1OCCCN1CCCC1; test = TMT quantitative proteomics, item: NPTXR; test system = 5xFAD mice, hippocampus; setting = dose not given; endpoint = normalised protein abundance; result = 0.138 and 0.109 and 0.0955 and 0.16 and 0.134 and 0.0732 and 0.0401 and 0.0519
SMILES = C=CC(=O)Nc1cccc(Cn2ncc3cnc(Nc4cnn(CCOC)c4)nc32)c1; tested on = DDR2 human; test = binding, KINOMEscan; setting = 100 nM; how to read = lower = stronger binding; endpoint = percent of control; result = 80%
SMILES = COC1OC(C)C(OC2OC(C)C(O)C(OC3OC(C)C(OC4OC(C)C(O)C(OC5OC(C)C(O)C(OS(=O)(=O)O)C5OS(=O)(=O)O)C4OS(=O)(=O)O)C(OS(=O)(=O)O)C3OS(=O)(=O)O)C2OS(=O)(=O)O)C(OS(=O)(=O)O)C1OS(=O)(=O)O (centres unmarked); test system = human plasma; setting = 128 µg/mL; how to read = baseline: control; endpoint = thrombin time prolongation; result = 0.9 fold
SMILES = COc1cc(O)ccc1CCC(c1ccc(O)cc1)c1cc2c(c(C)c1O)OC(c1ccc(O)cc1)CC2 (mixture of isomers); test system = human blood; setting = 1 µM, with: A23187; endpoint = 5-HETE level; result = 4400 ± 1860 pg/mL
SMILES = NC[C@@H](C(=O)Nc1ccc(-c2cn[nH]c2)cc1)c1ccccc1; test = tonometry; test system = NZW rabbit, magnetic bead-induced ocular hypertension; setting = ocular, 0.1%, 0 h; endpoint = IOP; result = 36.4 mmHg
SMILES = Cc1ncsc1-c1ccc(C(C)NC(=O)C2CC(O)CN2C(=O)C(NC(=O)CCCCCCCCCCN2CCCC(Nc3ncc(Cl)c(Nc4ccccc4S(=O)(=O)C(C)C)n3)C2)C(C)(C)C)cc1 (centres unmarked); tested on = 22Rv1; test = RNA-seq, item: TNFRSF19 mRNA; setting = concentration not given; how to read = baseline: DMSO; endpoint = log2 fold change; result = -1.41
SMILES = COc1ccccc1-c1ccncc1C(=O)Nc1nnc(OCc2ccc(Cl)cc2)s1; test system = Brca1 Δ11/Δ11 Polq-/- MEFs, Mus musculus; setting = 10 µM, average of runs; how to read = baseline: 0 µM; endpoint = colony survival; result = 72.7%
SMILES = COc1ccc(NC(=O)c2ccc3[nH]c(-c4ccc(N(C)C)cc4)nc3c2)cn1; test system = Lewis lung carcinoma, mice, syngeneic graft, subcutaneous; setting = intraperitoneal, 50 mg/kg daily, day 0; endpoint = tumour volume; result = 117 mm3 and 111 mm3 and 103 mm3 and 189 mm3
SMILES = COC1OC(C)C(OC2OC(C)C(OS(=O)(=O)O)C(OC3OC(C)C(OC4OC(C)C(OS(=O)(=O)O)C(OC5OC(C)C(OC6OC(C)C(OS(=O)(=O)O)C(OS(=O)(=O)O)C6O)C(OS(=O)(=O)O)C5O)C4O)C(OS(=O)(=O)O)C3O)C2O)C(OS(=O)(=O)O)C1O (centres unmarked); test system = human plasma; setting = 128 µg/mL; endpoint = thrombin time; result = 10.2 ± 0.1 s
SMILES = CN(CCNCc1ccncc1[O-])CCNCc1ccncc1[O-].[Cl-].[Fe+3]; test = T1-weighted MRI 4.7 T; test system = BALB/c mice; setting = 0.10 mmol/kg; endpoint = vena cava signal enhancement; result = ~50%
SMILES = COC1OC(C)C(OS(=O)(=O)O)C(OC2OC(C)C(OS(=O)(=O)O)C(OC3OC(C)C(OS(=O)(=O)O)C(OC4OC(C)C(OS(=O)(=O)O)C(OC5OC(C)C(OS(=O)(=O)O)C(OS(=O)(=O)O)C5O)C4O)C3O)C2O)C1O (centres unmarked); test system = human plasma; setting = 128 µg/mL; how to read = baseline: control; endpoint = thrombin time prolongation; result = 0.9 fold
SMILES = COc1ccc(C(=O)CCc2cc(C(CCc3ccc(O)cc3OC)c3ccc(O)cc3)c(O)cc2OC)cc1 (racemic); test system = human blood; setting = 0.3 µM, with: A23187; endpoint = PGE2 level; result = 35 ± 8 pg/mL
SMILES = COC1OC(C)C(OC2OC(C)C(OS(=O)(=O)O)C(OC3OC(C)C(OC4OC(C)C(OS(=O)(=O)O)C(OS(=O)(=O)O)C4OS(=O)(=O)O)C(OS(=O)(=O)O)C3OS(=O)(=O)O)C2OS(=O)(=O)O)C(OS(=O)(=O)O)C1OS(=O)(=O)O (centres unmarked); test system = human plasma; setting = 128 µg/mL; how to read = baseline: control; endpoint = thrombin time prolongation; result = 1 fold
SMILES = CN1CCC[C@]1(C)/C=C/S(=O)(=O)NC(=O)Nc1c2c(cc3c1CCC3)CCC2; test system = human, whole blood ex vivo; setting = 50 mg twice daily, day 19, 108 h, multiple ascending dose, with: LPS and ATP; endpoint = IL-18 inhibition; result = 62.3%
SMILES = COC1OC(C)C(OC2OC(C)C(O)C(OS(=O)(=O)O)C2OS(=O)(=O)O)C(OS(=O)(=O)O)C1OS(=O)(=O)O (centres unmarked); test system = human plasma; setting = 128 µg/mL; endpoint = thrombin time; result = 9.3 ± 0.1 s
SMILES = Cc1ccc(N(O)/N=N/c2ccc(S(=O)(=O)Nc3nccs3)cc2)cc1; test = carrageenan-induced paw edema; test system = Wistar rat; setting = oral, 100 mg/kg, 1 h after carrageenan, with: carrageenan 1% subplantar; how to read = higher = more edema; endpoint = paw edema volume; result = 5.78 ± 0.87 a.u.
SMILES = COC1OC(C)C(OC2OC(C)C(O)C(OC3OC(C)C(OC4OC(C)C(O)C(OC5OC(C)C(OC6OC(C)C(O)C(OC7OC(C)C(OC8OC(C)C(O)C(OC9OC(C)C(OC%10OC(C)C(O)C(OC%11OC(C)C(OC%12OC(C)C(O)C(OS(=O)(=O)O)C%12OS(=O)(=O)O)C(OS(=O)(=O)O)C%11OS(=O)(=O)O)C%10OS(=O)(=O)O)C(OS(=O)(=O)O)C9OS(=O)(=O)O)C8OS(=O)(=O)O)C(OS(=O)(=O)O)C7OS(=O)(=O)O)C6OS(=O)(=O)O)C(OS(=O)(=O)O)C5OS(=O)(=O)O)C4OS(=O)(=O)O)C(OS(=O)(=O)O)C3OS(=O)(=O)O)C2OS(=O)(=O)O)C(OS(=O)(=O)O)C1OS(=O)(=O)O (centres unmarked); test system = human plasma; setting = 128 µg/mL; how to read = baseline: control; endpoint = thrombin time prolongation; result = 1 fold
SMILES = OO; test system = pancreatic islet cells, mouse; setting = 125 µM, 24 h; endpoint = live cells; result = 4.6%

Some of these lines once more:
SMILES = CN1CCC[C@]1(C)/C=C/S(=O)(=O)NC(=O)Nc1c2c(cc3c1CCC3)CCC2; test system = human, whole blood ex vivo; setting = 50 mg twice daily, day 19, 108 h, multiple ascending dose, with: LPS and ATP; endpoint = IL-18 inhibition; result = 62.3%
SMILES = C=CC(=O)Nc1cccc(Cn2ncc3cnc(Nc4cnn(CCOC)c4)nc32)c1; tested on = DDR2 human; test = binding, KINOMEscan; setting = 100 nM; how to read = lower = stronger binding; endpoint = percent of control; result = 80%
SMILES = COC1OC(C)C(OC2OC(C)C(O)C(OC3OC(C)C(OC4OC(C)C(O)C(OC5OC(C)C(OC6OC(C)C(O)C(OC7OC(C)C(OC8OC(C)C(O)C(OC9OC(C)C(OC%10OC(C)C(O)C(OC%11OC(C)C(OC%12OC(C)C(O)C(OS(=O)(=O)O)C%12OS(=O)(=O)O)C(OS(=O)(=O)O)C%11OS(=O)(=O)O)C%10OS(=O)(=O)O)C(OS(=O)(=O)O)C9OS(=O)(=O)O)C8OS(=O)(=O)O)C(OS(=O)(=O)O)C7OS(=O)(=O)O)C6OS(=O)(=O)O)C(OS(=O)(=O)O)C5OS(=O)(=O)O)C4OS(=O)(=O)O)C(OS(=O)(=O)O)C3OS(=O)(=O)O)C2OS(=O)(=O)O)C(OS(=O)(=O)O)C1OS(=O)(=O)O (centres unmarked); test system = human plasma; setting = 128 µg/mL; how to read = baseline: control; endpoint = thrombin time prolongation; result = 1 fold
